Experimental data pooled from the literature.
Protocols differ between the studies behind these lines. ± gives the spread as reported.
14-3-3 protein beta/alpha: 14-3-3 protein beta/alpha (Homo sapiens, UniProt P31946)
UniProt P31946, sequence (whole entry, looked up): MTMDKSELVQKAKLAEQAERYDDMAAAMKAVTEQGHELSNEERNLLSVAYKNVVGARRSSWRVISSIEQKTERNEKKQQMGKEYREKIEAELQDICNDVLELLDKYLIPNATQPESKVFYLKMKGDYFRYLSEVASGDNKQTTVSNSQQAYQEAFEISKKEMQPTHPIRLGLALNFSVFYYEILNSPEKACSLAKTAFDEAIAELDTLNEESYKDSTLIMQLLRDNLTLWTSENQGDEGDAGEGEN
UniProt P20273, sequence (whole entry, looked up): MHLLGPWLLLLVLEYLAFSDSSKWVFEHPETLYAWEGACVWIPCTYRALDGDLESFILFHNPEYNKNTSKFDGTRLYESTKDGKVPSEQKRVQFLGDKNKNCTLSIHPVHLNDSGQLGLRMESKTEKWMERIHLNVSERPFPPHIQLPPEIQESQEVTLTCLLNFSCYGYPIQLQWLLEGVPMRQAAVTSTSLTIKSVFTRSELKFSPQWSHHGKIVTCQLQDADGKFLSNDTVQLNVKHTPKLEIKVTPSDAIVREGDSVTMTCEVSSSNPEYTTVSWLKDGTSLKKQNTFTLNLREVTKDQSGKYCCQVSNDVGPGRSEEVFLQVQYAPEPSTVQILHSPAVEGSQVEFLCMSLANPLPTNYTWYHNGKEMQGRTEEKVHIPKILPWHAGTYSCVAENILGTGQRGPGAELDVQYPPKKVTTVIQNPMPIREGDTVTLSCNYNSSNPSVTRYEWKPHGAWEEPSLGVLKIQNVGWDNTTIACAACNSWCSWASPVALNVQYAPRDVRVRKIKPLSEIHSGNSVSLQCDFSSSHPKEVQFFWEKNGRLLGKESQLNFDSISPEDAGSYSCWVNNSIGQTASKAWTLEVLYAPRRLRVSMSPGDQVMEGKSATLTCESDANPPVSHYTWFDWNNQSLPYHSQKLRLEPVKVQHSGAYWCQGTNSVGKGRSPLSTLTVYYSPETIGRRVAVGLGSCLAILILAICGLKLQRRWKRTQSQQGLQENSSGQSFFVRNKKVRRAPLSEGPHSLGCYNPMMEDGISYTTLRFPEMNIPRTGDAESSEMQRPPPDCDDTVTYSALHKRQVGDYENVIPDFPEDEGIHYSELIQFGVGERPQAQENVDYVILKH
UniProt A0A0D1DWZ5, sequence (whole entry, looked up): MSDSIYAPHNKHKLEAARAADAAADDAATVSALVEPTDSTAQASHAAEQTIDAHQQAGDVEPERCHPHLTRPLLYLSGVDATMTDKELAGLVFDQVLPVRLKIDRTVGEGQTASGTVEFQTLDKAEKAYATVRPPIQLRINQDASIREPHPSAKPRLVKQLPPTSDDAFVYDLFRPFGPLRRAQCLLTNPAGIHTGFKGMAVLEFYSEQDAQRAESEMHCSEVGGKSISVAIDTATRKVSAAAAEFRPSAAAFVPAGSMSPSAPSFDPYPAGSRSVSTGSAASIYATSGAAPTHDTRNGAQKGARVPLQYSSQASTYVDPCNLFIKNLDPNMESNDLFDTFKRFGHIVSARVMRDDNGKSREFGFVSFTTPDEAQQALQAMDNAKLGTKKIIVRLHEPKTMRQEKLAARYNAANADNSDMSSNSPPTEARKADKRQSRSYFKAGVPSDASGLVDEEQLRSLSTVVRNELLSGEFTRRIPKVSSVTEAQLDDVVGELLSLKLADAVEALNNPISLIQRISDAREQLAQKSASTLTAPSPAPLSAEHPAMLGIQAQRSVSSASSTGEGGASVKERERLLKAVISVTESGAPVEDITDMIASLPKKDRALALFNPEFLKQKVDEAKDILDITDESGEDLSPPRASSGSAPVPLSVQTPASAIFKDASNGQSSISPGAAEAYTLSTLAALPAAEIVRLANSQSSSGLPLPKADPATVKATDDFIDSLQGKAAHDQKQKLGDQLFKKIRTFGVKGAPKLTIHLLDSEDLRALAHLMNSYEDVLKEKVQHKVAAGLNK
UniProt P07948, sequence (whole entry, looked up): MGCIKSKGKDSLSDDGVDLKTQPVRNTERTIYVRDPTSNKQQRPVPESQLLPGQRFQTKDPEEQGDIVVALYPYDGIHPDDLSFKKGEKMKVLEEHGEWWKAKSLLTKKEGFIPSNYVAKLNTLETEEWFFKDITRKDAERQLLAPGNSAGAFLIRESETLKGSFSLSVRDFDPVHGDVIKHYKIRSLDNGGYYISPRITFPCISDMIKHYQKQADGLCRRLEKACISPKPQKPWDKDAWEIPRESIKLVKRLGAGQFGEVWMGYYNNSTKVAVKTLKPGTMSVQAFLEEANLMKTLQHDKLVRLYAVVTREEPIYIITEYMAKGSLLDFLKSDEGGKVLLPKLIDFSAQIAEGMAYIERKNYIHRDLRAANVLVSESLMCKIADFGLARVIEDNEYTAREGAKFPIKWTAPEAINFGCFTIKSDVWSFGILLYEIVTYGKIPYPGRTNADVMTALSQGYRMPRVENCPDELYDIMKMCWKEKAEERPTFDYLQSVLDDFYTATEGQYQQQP
UniProt Q86YV6, sequence (whole entry, looked up): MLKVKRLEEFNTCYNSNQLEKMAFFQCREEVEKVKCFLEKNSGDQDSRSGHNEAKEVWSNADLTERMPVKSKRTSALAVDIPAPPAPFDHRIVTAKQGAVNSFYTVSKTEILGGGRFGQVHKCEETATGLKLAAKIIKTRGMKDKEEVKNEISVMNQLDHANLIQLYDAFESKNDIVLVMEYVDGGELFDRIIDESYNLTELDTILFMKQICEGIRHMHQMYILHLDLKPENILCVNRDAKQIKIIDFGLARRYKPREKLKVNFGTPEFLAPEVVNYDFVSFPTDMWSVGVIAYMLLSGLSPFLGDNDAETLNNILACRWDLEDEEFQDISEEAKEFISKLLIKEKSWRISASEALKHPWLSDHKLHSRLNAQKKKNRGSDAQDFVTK
UniProt P33913, sequence (whole entry, unmodified, looked up): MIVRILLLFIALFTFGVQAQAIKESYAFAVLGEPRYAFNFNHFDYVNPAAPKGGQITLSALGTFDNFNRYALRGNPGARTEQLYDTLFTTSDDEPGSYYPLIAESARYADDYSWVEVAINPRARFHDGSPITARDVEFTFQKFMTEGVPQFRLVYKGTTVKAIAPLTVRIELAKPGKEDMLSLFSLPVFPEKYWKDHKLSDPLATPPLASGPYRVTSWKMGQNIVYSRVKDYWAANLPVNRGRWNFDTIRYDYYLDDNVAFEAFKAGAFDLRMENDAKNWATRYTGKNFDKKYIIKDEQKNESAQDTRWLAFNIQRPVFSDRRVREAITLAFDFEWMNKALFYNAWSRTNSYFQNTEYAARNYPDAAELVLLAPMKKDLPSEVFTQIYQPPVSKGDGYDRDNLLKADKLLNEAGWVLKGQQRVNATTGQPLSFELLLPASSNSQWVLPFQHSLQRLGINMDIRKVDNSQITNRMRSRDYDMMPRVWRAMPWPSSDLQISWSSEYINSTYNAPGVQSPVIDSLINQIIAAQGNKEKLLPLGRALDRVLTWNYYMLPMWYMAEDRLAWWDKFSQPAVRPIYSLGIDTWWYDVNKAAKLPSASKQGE
UniProt Q9UKE5, sequence (whole entry, looked up): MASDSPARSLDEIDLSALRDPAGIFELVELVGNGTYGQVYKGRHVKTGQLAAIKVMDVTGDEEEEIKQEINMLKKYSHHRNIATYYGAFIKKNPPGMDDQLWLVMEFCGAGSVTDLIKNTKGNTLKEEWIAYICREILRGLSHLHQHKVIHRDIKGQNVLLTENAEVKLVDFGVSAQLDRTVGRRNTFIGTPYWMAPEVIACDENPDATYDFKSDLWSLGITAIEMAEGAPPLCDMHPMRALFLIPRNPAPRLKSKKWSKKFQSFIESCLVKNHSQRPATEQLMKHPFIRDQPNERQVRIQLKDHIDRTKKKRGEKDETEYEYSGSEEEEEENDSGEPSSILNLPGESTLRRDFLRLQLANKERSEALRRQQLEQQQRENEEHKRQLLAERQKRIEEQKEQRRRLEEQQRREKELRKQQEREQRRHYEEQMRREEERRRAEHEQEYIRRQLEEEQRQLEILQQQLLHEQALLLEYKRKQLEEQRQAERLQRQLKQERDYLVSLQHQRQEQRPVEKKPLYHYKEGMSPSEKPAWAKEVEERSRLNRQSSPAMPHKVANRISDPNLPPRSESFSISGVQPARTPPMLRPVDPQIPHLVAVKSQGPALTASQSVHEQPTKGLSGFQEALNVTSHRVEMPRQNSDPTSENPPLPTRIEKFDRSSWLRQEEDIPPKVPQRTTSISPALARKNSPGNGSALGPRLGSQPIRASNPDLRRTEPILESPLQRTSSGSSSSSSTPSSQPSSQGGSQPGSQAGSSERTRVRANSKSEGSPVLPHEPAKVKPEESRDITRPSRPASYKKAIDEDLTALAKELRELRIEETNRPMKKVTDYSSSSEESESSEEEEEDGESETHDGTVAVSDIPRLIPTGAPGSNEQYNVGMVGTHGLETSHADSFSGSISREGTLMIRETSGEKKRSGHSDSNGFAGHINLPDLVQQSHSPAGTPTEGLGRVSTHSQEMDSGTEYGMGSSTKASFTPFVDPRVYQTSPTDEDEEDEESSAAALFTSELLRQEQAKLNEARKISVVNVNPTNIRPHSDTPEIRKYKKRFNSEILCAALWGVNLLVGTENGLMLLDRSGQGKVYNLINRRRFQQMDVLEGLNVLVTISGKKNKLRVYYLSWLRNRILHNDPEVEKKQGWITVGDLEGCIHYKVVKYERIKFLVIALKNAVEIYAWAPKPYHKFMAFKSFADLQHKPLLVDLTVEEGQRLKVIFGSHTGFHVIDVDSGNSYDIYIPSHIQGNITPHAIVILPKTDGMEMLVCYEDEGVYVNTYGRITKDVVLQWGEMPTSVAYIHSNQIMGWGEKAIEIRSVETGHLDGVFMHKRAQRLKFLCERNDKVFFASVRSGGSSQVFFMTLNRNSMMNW

| SMILES | target or system | assay | test system | conditions | how to read | quantity | value |
| --- | --- | --- | --- | --- | --- | --- | --- |
| CN(C)[C@H]1C[C@@]23CC[C@@]4(O2)C(=CC[C@]2(C)[C@@H](c5ccc6ccncc6c5)CC[C@H]24)C=C3[C@@H](O)[C@@H]1O | WEE1 (Homo sapiens, UniProt P30291) | ATP probe labelling, inhibitor, KiNativ profiling | – | 1 µM | – | inhibition | -11.2% |
| O=C(CF)N[C@H]1[C@H]([C@H](O)[C@H](O)CNC(=O)c2ccc(-c3ccccc3)cc2)O[C@@](OCc2cccc(Cl)c2Cl)(C(=O)O)C[C@@H]1O | CD22 (Homo sapiens, UniProt P20273) | binding, ITC | – | – | – | Kd | 0.16 µM |
| O=C(N[C@@H]1c2ccccc2C[C@H]1N1CCCC1)c1ccc(-c2ccnc3[nH]ccc23)nc1 | MYLK4 (Homo sapiens, UniProt Q86YV6) | binding, competition with immobilised ligand | – | – | – | Kd | 0.055 µM |
| CC(C)C[C@H](NC(=O)[C@H](CCP(=O)(O)O)NC(=O)[C@@H](NC(=O)[C@@H](NC(=O)[C@H](CCCNC(=N)N)NC(=O)[C@H](CC(C)C)NC(=O)[C@H](CO)NC(=S)Nc1ccc2c(c1)C(=O)OC21c2ccc(O)cc2Oc2cc(O)ccc21)[C@@H](C)O)C(C)C)C(=O)NCC(=O)N[C@@H](C)C(=O)NCC(=O)N[C@@H](C)C(=O)N[C@@H](Cc1c[nH]c2ccccc12)C(=O)N[C@@H](CC(C)C)C(=O)N[C@H](C(=O)N1CCC[C@H]1C(=O)N[C@@H](CCCNC(=N)N)C(=O)O)C(C)C | 14-3-3 protein beta/alpha | binding, fluorescence anisotropy | – | pH 7.5, FITC-labelled phosphopeptide titration | – | Kd | 20.9 µM |
| N[C@@H](Cc1ccccc1)P(=O)(O)O | PAL1 (Petroselinum crispum, UniProt P24481, Y110F) | ITC | – | – | – | Kd | 8.9 µM |
| CCCc1cc2cc(-n3cc(C)c4c3CC(C)(C)CC4=O)cc(N3CCC(O)CC3)c2c(=O)[nH]1 | HSP90AB1 (Homo sapiens, UniProt P08238) | fluorescence polarization | – | 24 h, 4 °C, with: FITC-geldanamycin tracer | – | Kd | 0.575 µM |
| CSCC[C@H](NC=O)C(=O)N[C@@H](CCCNC(=N)N)C(=O)N[C@H](C(=O)NCC(=O)N[C@@H](CC(N)=O)C(=O)N[C@@H](C)C(=O)N[C@@H](CC(N)=O)C(=O)NCC(=O)NCC(=O)N[C@@H](CCCCNC(=S)Nc1ccc2c(c1)C(=O)OC21c2ccc(O)cc2Oc2cc(O)ccc21)C(=O)O)[C@@H](C)O | Uncharacterized protein YejA (yejA, Escherichia coli, UniProt P33913, Y509A) | binding, fluorescence polarisation | – | YejA variant Y491A | – | Kd | > 1000 µM |
| C=C1NC(=O)CNC(=O)[C@H](CCCNC(=N)N)NC(=O)[C@H](Cc2ccc(O)cc2)NC(=O)[C@H](CC(C)C)NC(=O)[C@H](CO)NC(=O)[C@H](CCCCN)NC(=O)[C@H](CC(N)=O)NC(=O)CNC(=O)[C@H](Cc2ccccc2)NC(=O)[C@H](Cc2c[nH]c3ccccc23)NC(=O)[C@H](Cc2c[nH]c3ccccc23)NC(=O)c2ccc(-c3nc(C(=O)OC)cs3)nc2-c2csc1n2 | TNIK (Homo sapiens, UniProt Q9UKE5) | binding, SPR | – | – | – | Kd | 0.0097 µM |
| COc1ccccc1-c1n[nH]c2nc(NC3CCN(C(=O)Cc4ccc(F)cc4F)CC3)ncc12 | – | bead binding, competition bead pull-down, refers to: LINJ.34.0710 | Leishmania donovani axenic amastigote extract | 10 µM | baseline: vehicle | relative abundance | 1.01 |
| CC(C)(C)C(=O)OCOP(=O)(OCOC(=O)C(C)(C)C)C1CCCN(O)C1=O (stereo not drawn) | NCI-H460 | – | – | – | – | CC50 | > 100 µM |
| CC[C@H](C)[C@H](NC(=O)[C@H](Cc1ccccc1)NC(=O)[C@H](CCC(=O)O)NC(=O)[C@H](CC(=O)O)NC(=O)[C@H](CC(=O)O)NC(=O)[C@H](CC(=O)O)NC(=O)[C@H](CC(=O)O)NC(=O)[C@H](CC(=O)O)NC(=O)[C@H](C)NC(=O)[C@H](C)NC(=O)[C@H](CC(=O)O)NC(=O)[C@H](CCC(=O)O)NC(=O)[C@@H](N)CC(=O)O)C(=O)N[C@@H](Cc1ccc(O)cc1)C(=O)N1CCC[C@H]1C(=O)N[C@@H](CC(N)=O)C(=O)N[C@@H](CO)C(=O)N[C@@H](Cc1ccc(O)cc1)C(=O)O | RNA-binding protein RRM4 (RRM4, Mycosarcoma maydis, UniProt A0A0D1DWZ5) | isothermal titration calorimetry | – | pH 8.0, 25 °C | – | Kd | 6.4 µM |
| O=C1NC2(CC2)COc2ncc(F)cc2[C@H]2COCCN2c2ccn3ncc1c3n2 | – | – | Sprague-Dawley rat, female, ovaries | oral, 10 mg/kg/day, 4 weeks, end of treatment | – | organ-to-brain weight ratio | 6.19 ± 0.86% |
| CC(C)[C@H]1NC(=O)C[C@H]2/C=C/CCSSC[C@@H](NC1=O)C(=O)N[C@H](Cc1cccc3ccccc13)C(=O)NCC(=O)O2 | Tyrosine-protein kinase Lyn, isoform B (LYN, Homo sapiens, UniProt P07948) | – | – | 10 µM | – | inhibition | -0.436% |
| CCCC[C@H](N)C(=O)N[C@H]1CSCCCCCCCCCCSC[C@@H](C(=O)N[C@H](C(N)=O)[C@@H](C)O)NC(=O)[C@H](CCCCN)NC(=O)[C@H](CCCCN)NC(=O)[C@H](CCCCN)NC(=O)[C@H](Cc2ccc(O)cc2)NC(=O)[C@H](CC(N)=O)NC(=O)[C@H](CC(C)C)NC1=O | GTPase KRas, GMPPNP-bound (KRAS, Homo sapiens, UniProt P01116, C118S/G12V) | binding, biolayer interferometry | – | pH 7.4, 25 °C, GMPPNP-bound form | – | Kd | 80 µM |
| CC[C@H](C)[C@H](NC(=O)[C@H](CO)NC(=O)[C@H](CC(N)=O)NC(C)=O)C(=O)N[C@@H](CCCNC(=N)N)C(=O)N[C@@H](CCCCN)C(=O)N[C@@H](Cc1ccccc1)C(=O)N[C@@H](COP(=O)(O)O)C(=O)N[C@H](C(=O)N[C@H](C(=O)N[C@@H](CCC(N)=O)C(=O)N[C@@H](CCCCN)C(=O)N[C@H](C(=O)N1CCC[C@H]1C(=O)NCC(=O)NCC(=O)NCC(=O)NCC(=O)NCC(=O)N[C@@H](CCC(N)=O)C(=O)N[C@@H](C)C(=O)N[C@@H](CCCNC(=N)N)C(=O)N[C@@H](CCCNC(=N)N)C(=O)N[C@@H](CCCNC(=N)N)C(=O)N[C@@H](CCC(N)=O)C(=O)N[C@@H](COP(=O)(O)O)C(=O)N[C@H](C(=O)N[C@@H](CC(C)C)C(=O)N[C@@H](CC(N)=O)C(=O)N[C@@H](CC(C)C)C(=O)N[C@@H](CCSC)C(=O)N[C@H](C(N)=O)[C@@H](C)O)C(C)C)[C@@H](C)O)C(C)C)[C@@H](C)CC | 14-3-3 protein beta/alpha | binding, ITC | – | pH 7.4 | – | Kd | 31 µM |
